Measured values gathered from unrelated publications.
Protocols differ between the studies behind these lines. ± gives the spread as reported.
Cell line: HepG2

Under “point of departure”, CN(CCOc1ccc(CC2SC(=O)NC2=O)cc1)c1ccccn1 (stereo not shown) is recorded as 10 to 100 µM (Bayesian modelling, item: mitochondrial stress biomarkers).
CN1CCN(c2nc3cc(C(F)(F)F)ccc3n3cccc23)CC1 has an EC50 of 8 µM (phospholipidosis induction, inducer, high-content imaging; 24 h, primary screen).
For C/C(=N\N=C1/NC(=O)C(C)S1)c1ccccn1 (stereo not shown), the inhibition was 68.6% (cell growth or viability, SRB; 100 µg/mL, 48 h).
CCCCN(CCCC)CC(O)c1cc(Cl)cc2c1-c1ccc(Cl)cc1/C2=C/c1ccc(Cl)cc1 (stereo not shown) gave a CC50 of > 20 µM (cell growth or viability).
With COc1ccc2c(c1)c1c(n2CO)CN2CCc3cc(OCc4ccccc4F)c(OC)cc3C2C1 (stereo not shown) the protein level was 0.87 ± 0.06 (Western blot, item: PCSK9; 5 µM, 24 h, unit not given; reference: vehicle).
For COc1cc2nc(N3CCN(C(=O)OCc4ccccc4)[C@H](C(=O)NC(C)(C)C)C3)nc(N)c2cc1OC, the EC50 was 4 µM (phospholipidosis induction, inducer, high-content imaging; 24 h, primary screen).
Cc1cc(O)c2c(c1)C(=O)c1cc(O)cc(O)c1C2=O gave an OCR of 248 ± 2.96% (Seahorse respirometry; concentration not given, 1 h, dosed at MMP IC50, added: 1 µM FCCP; reference: basal).
Under apoptosis inhibition, COC(=O)C[C@H](NC(=O)[C@H](C)NC(=O)[C@@H](NC(=O)OCc1ccccc1)C(C)C)C(=O)CF is recorded as “inhibited” (apoptosis and caspase activation, annexin V-FITC/PI; 10 µM, 2 h pretreatment, added: 2.5 µM other inducer for 24 h).
For OCCN1CCN(CC/C=C2/c3ccccc3Sc3ccc(C(F)(F)F)cc32)CC1, the EC50 was 7.6 ± 4.4 µM (phospholipidosis induction, inducer, high-content imaging; 24 h, confirmation screen).
Cc1[nH]c(=S)nc2c1c(=O)oc1ccc3ccccc3c12 has an inhibition of 34.6% (cell growth or viability, MTT; 10 µM).
Cl.N=C1C=CC(=C(c2ccc(N)cc2)c2ccc(N)cc2)C=C1 has a maximal OCR of 104 ± 3.14% (MMP IC50, 1 h, added: FCCP 1 µM; reference: basal OCR).
CC1=C(C(=O)Nc2cccnc2)C(c2ccc3ccc4cccc5ccc2c3c45)NC(=S)N1 (stereo not shown) has an inhibition of 29.8% (cell growth or viability, MTT; 10 µM).
COc1ccc2cc3[n+](cc2c1OC)CCc1cc2c(cc1-3)OCO2 has a DiI-LDL uptake of 1.38 (5 µM, 24 h, unit not given; reference: vehicle).
COc1cc([C@@H]2c3cc4c(cc3[C@@H](O[C@@H]3O[C@@H]5CO[C@@H](c6cccs6)O[C@H]5[C@H](O)[C@H]3O)[C@H]3COC(=O)[C@H]23)OCO4)cc(OC)c1O has an EC50 of 7.7 µM (cell proliferation).
The inhibition of CCN1C(=O)CS/C1=N/N=C(\C)c1ccccn1 is reported as 65.2% (cell growth or viability, SRB; 100 µg/mL, 48 h).
With COc1cccc2c1C(=O)c1c(O)c3c(c(O)c1C2=O)C[C@@](O)(C(=O)CO)C[C@@H]3O[C@H]1C[C@H](N)[C@H](O)[C@H](C)O1 the mRNA level was 0.47 ± 0.1 (real-time PCR, item: TXNRD1; 0.1 µM, 8 h, unit not given; reference: untreated).
COc1ccc2c(c1)c1c(n2CO)CN2CCc3cc(OC)c(OCc4ccc(C)cc4)cc3C2C1 (stereo not shown) has a protein level of 0.92 ± 0.09 (Western blot, item: PCSK9; 5 µM, 24 h, unit not given; reference: vehicle).
For COc1ccc(-c2ccc(-c3ccc(C(=N)N)nc3)s2)cc1Cl, the mRNA level was 0.51 ± 0.15 (real-time PCR, item: CDK1; 0.1 µM, 8 h, unit not given; reference: untreated).
The inhibition of CC(=O)C1S/C(=N/N=C(\C)c2ccccn2)NC1=O (stereo not shown) is reported as 68.6% (cell growth or viability, SRB; 100 µg/mL, 48 h).
With CSc1ccc2c(c1)C(N1CCN(C)CC1)Cc1ccccc1S2 (stereo not shown) the EC50 was 6.1 ± 0.4 µM (phospholipidosis induction, inducer, high-content imaging; 24 h, confirmation screen).
With N=C(CC(O)c1cc2ccccc2c2ccccc12)NCCc1ccc(F)cc1 (stereo not shown) the CC50 was 5 µM (cell growth or viability).
CC12NC(=S)NC(c3c(ccc4ccccc34)O1)C2C(=O)Nc1ccccc1 (stereo not shown) has an inhibition of 65.4% (cell growth or viability, MTT; 10 µM).
The EC50 of NC(N)=NC(=O)c1nc(Cl)c(N2CCCCCC2)nc1N is reported as 13 µM (phospholipidosis induction, inducer, high-content imaging; 24 h, primary screen).
CCN1C(=O)/C(=C\c2ccc(Cl)cc2)S/C1=N/N=C(\C)c1ccccn1 has an inhibition of 60.2% (cell growth or viability, SRB; 100 µg/mL, 48 h).
With COc1cc2c(cc1OCc1ccccc1)CCN1Cc3c(c4c(Br)cccc4n3CO)CC21 (stereo not shown) the protein level was 0.97 (Western blot, item: PCSK9; 5 µM, 24 h, unit not given; reference: vehicle).
With CNC(=O)c1cc(O[C@H]2CC[C@H](NC(=O)Nc3ccc(Cl)c(C(F)(F)F)c3)CC2)ccn1 the EC50 was 7 µM (cell growth or viability, MTT; 72 h).
With COc1cc2c(cc1OCc1ccc(F)cc1)CCN1Cc3c(c4ccccc4n3CO)CC21 (stereo not shown) the protein level was 0.81 ± 0.07 (Western blot, item: PCSK9; 5 µM, 24 h, unit not given; reference: vehicle).
The inhibition of CC(=O)c1s/c(=N/N=C(\C)c2ccccn2)[nH]c1C is reported as 65.2% (cell growth or viability, SRB; 100 µg/mL, 48 h).
COc1cccc(COc2cc3c(cc2OC)CCN2Cc4c(c5cc(OC)ccc5n4CO)CC32)c1 (stereo not shown) has a protein level of 1.04 ± 0.16 (Western blot, item: PCSK9; 5 µM, 24 h, unit not given; reference: vehicle).
CC(C)(C)[C@]1(O)CCN2C[C@H]3c4ccccc4CCc4cccc(c43)[C@@H]2C1 gave an EC50 of 4.9 ± 1.2 µM (phospholipidosis induction, LipidTOX high-content imaging; 24 h, confirmation screen).
CC1=C(C(=O)Nc2ccccn2)C(c2ccc3ccc4cccc5ccc2c3c45)NC(=S)N1 (stereo not shown) gave an inhibition of 22.3% (cell growth or viability, MTT; 10 µM).
COc1cc(C2Oc3cc([C@H]4Oc5cc(O)cc(O)c5C(=O)[C@@H]4O)ccc3OC2CO)ccc1O (stereo partly shown) has an OCR of 48.4 ± 1.58% (Seahorse respirometry; concentration not given, 1 h, dosed at MMP IC50, added: 1 µM FCCP; reference: basal).
CCn1c(C)c(C(C)=O)s/c1=N/N=C(\C)c1ccccn1 has an inhibition of 66.1% (cell growth or viability, SRB; 100 µg/mL, 48 h).
The inhibition of Cc1[nH]c(=O)nc2c1c(=O)oc1ccc3ccccc3c12 is reported as 36.5% (cell growth or viability, MTT; 10 µM).
COc1ccc2c(c1)c1c(n2CO)CN2CCc3cc(OCc4cccc(C)c4)c(OC)cc3C2C1 (stereo not shown) gave a protein level of 0.94 ± 0.03 (Western blot, item: PCSK9; 5 µM, 24 h, unit not given; reference: vehicle).
CCn1c(-c2ccccc2)cs/c1=N/N=C(\C)c1ccccn1 gave an inhibition of 54.2% (cell growth or viability, SRB; 100 µg/mL, 48 h).
The mRNA level of COc1ccc(-c2ccc(-c3ccc(C(=N)N)nc3)s2)cc1 is reported as 0.37 ± 0.04 (real-time PCR, item: CDK1; 0.1 µM, 8 h, unit not given; reference: untreated).
CCn1c(C)c(/N=N/c2ccc(Cl)cc2)s/c1=N/N=C(\C)c1ccccn1 gave an inhibition of 68.8% (cell growth or viability, SRB; 100 µg/mL, 48 h).
COc1cc2c(cc1OCc1cccc(C)c1)CCN1Cc3c(c4ccccc4n3CO)CC21 (stereo not shown) gave a protein level of 0.93 (Western blot, item: PCSK9; 5 µM, 24 h, unit not given; reference: vehicle).
With COc1cc(-c2ccc(-c3ccc(C(=N)N)nc3)s2)cc(OC)c1OC the mRNA level was 3.37 ± 0.25 (real-time PCR, item: caspase-3; 0.1 µM, 8 h, unit not given; reference: untreated).

For quick reference, copied from above:
COc1cc(C2Oc3cc([C@H]4Oc5cc(O)cc(O)c5C(=O)[C@@H]4O)ccc3OC2CO)ccc1O (stereo partly shown) has an OCR of 48.4 ± 1.58% (Seahorse respirometry; concentration not given, 1 h, dosed at MMP IC50, added: 1 µM FCCP; reference: basal).
CCn1c(C)c(C(C)=O)s/c1=N/N=C(\C)c1ccccn1 has an inhibition of 66.1% (cell growth or viability, SRB; 100 µg/mL, 48 h).
The inhibition of Cc1[nH]c(=O)nc2c1c(=O)oc1ccc3ccccc3c12 is reported as 36.5% (cell growth or viability, MTT; 10 µM).
COc1ccc2c(c1)c1c(n2CO)CN2CCc3cc(OCc4cccc(C)c4)c(OC)cc3C2C1 (stereo not shown) gave a protein level of 0.94 ± 0.03 (Western blot, item: PCSK9; 5 µM, 24 h, unit not given; reference: vehicle).
CCn1c(-c2ccccc2)cs/c1=N/N=C(\C)c1ccccn1 gave an inhibition of 54.2% (cell growth or viability, SRB; 100 µg/mL, 48 h).
The mRNA level of COc1ccc(-c2ccc(-c3ccc(C(=N)N)nc3)s2)cc1 is reported as 0.37 ± 0.04 (real-time PCR, item: CDK1; 0.1 µM, 8 h, unit not given; reference: untreated).
CCn1c(C)c(/N=N/c2ccc(Cl)cc2)s/c1=N/N=C(\C)c1ccccn1 gave an inhibition of 68.8% (cell growth or viability, SRB; 100 µg/mL, 48 h).
